# Measured values pooled from the literature.
# Each numbered part is a random draw from the data of one study; scales do not carry over between parts.

# Series 1
# Target: RNA binding protein fox-1 homolog 2, RRM domain, GST-SBP tag (RBFOX2, Homo sapiens, UniProt O43251-10, residues 100-194)
# Technique: RNA Bind-n-Seq
# Molecule type: RNA
# Medium: in vitro
# Concentration: 365 nM
# Notes: natural RNA segment, single round, ends assumed
# Baseline: no-protein control
# Direction: higher = stronger binding
# Target sequence (chain): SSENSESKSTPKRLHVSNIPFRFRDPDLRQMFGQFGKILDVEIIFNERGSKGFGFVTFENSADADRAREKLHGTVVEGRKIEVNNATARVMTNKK
Sequence,RBNS enrichment (R)
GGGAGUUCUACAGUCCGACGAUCAAGGCCUGAUAGAAGGGUCAGGGCAGGCCAGGGGGGUGGGGGGCCGCCCUCAUCAGGCAGCCCCCAGCCCCCUGAGGCCCUGUCCAUCUUCUCCCCACCACCGCCCCGGUUGGAAUUCUCGGGUGCCAA,0.182
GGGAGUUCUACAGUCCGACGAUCCGCCUUCGGCCAGGCAGCGAUCCACGGACCAAACCUCCUGCGCCCUCAGCCGGUGGGUCACUUCUCCAGUGUCCAGUGCCAUCUUUCUCGACCCUGUUUCUUUCCAUUCAUGGAAUUCUCGGGUGCCAA,0.32
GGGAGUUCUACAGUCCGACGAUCUGUGUGUGUGCACGCGCAGUGUCCAUCAGUAUCAGUGCCUGCCUGAGUUAGGAAAAUUACAUUCCUGGUUCUGUAUUGAGGAGAAGGAUGUAUAAAGCAACAUGAAACAUUGGAAUUCUCGGGUGCCAA,1.04
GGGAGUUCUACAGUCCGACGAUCCAUUGGCUGUGCCCAAAUGAGUCCUCUUUGAAUAGAAAGUGAACCCAGGGCAAUGACAGCCAUUCUUGUCUUAGGGAUUAUGGAUCGGGGUAUGAAGUGUGCACACGCAGUGGAAUUCUCGGGUGCCAA,0.479
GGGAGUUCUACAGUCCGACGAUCUCUCCUCUCCUGGCUCUACCAGUAAGACAAGAUUUAUUUAAUUUUAUUAUUUAAUCUGCACUGAUUUUCCUGUCUUUGGUGGGUACAGUGUGAUAGGACCACUGUCCUGGUGGAAUUCUCGGGUGCCAA,0.405
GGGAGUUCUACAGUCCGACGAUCGAAACCCAGCGCGCAGUUCUCUUCUGUCAGCUUGUUUUUUUUAGAGUAAAAGGAAGAGAAAUAAAAGUUCAUGAGCUGUCUGGUCAUUGGGAUUAGGAAGCAGGUGUGGGUGGAAUUCUCGGGUGCCAA,0.721
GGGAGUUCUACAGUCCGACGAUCGGGUUUUGAGCAGGCUGUUAUAGUGAGGAAUGUUCAUUUUUAAAUGUUCCUAACAGAUUUUGCUUUUGAAAAAUGCUUGUUACAUGAAUAAUUUGUGGACCAGGGAUUGCUGGAAUUCUCGGGUGCCAA,0.641
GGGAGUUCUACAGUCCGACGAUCAGCUUAAAAUUGCAGUGAUUGAGCAUAACCUACUUGUUUGUAUAAAUUAUUGAAAUCCAUUUGCACCCUGUUAAGAAUGGACUUAAAAGUACUGCUGGACAGGCAUGUGUUGGAAUUCUCGGGUGCCAA,3.14
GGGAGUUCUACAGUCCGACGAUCAGGUUAAAGACAGUCAUAUAAACGUCCUGUUUCUGUUUUAAUGUUAUCAUAGAAUUUUUUAAUGAAACUAAAUUCAAUUGAAAUAAAUGAUAGUUUUCAUCUCCAUUCAGUGGAAUUCUCGGGUGCCAA,0.519
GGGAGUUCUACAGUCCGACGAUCUUACCCCACCUGUCCUAUCAGGUGGGCCACACCCUGCUUGCCCACACCAGGGUCUGUCCUGGUCCUCAAGCCACGCACCCGCUAUGCCUGCACUGCAGCCCAGCCCCGGAUGGAAUUCUCGGGUGCCAA,0.281
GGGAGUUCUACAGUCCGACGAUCUUUUUUUCCCCUCGAGAUGGAGUCUUGCUCUGUUGCCCAGGCUGGAGUGCAGUGGCAUGAUCUCAGCCACUGCAACCUCUGCCUCCCGGGUUCAAGCGAUUCUUCUGCCUUGGAAUUCUCGGGUGCCAA,0.744
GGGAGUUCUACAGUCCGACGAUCGGGCCCGCUAAGUUCUGCUGAGCAGGCCUGUCCACGCUGUUCCUUACCGGUGAGACUGGGCUUGGACUGUACAAGACUUGAGUCCUAGACCUGGGUGUAUUUGCACUUUGUGGAAUUCUCGGGUGCCAA,0.243

# Series 2
# Target: Interferon regulatory factor 3, full length, phosphomimetic (IRF3, Homo sapiens, UniProt Q14653, residues 1-427, S386D/S396D/S398D/S402D/T404D/S405D)
# UniProt Q14653, sequence (whole entry, unmodified, looked up): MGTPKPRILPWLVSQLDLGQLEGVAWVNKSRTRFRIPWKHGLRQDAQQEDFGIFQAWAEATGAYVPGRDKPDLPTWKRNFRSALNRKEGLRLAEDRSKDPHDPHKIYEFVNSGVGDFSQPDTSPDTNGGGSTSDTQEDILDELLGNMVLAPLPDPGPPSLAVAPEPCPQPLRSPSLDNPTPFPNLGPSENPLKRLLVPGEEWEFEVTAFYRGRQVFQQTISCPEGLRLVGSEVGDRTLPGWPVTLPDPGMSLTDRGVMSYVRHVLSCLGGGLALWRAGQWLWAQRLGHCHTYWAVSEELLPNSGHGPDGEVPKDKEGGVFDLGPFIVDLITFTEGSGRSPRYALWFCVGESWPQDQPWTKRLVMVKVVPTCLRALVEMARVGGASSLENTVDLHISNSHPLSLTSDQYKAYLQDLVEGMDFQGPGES
# Technique: protein-binding microarray
# Molecule type: double-stranded DNA, one strand shown
# Medium: in vitro
# Concentration: 2540 nM top
# Notes: 60-bp whole probe
# Together with: salmon DNA 0.4 mg/ml
# Baseline: random background probes
# Direction: higher = stronger binding
# Constant ends, left off below: GCCTAGCAC … GTCTTGATTCGCTTGACGCTGCTG
Sequence,fitted relative affinity
GGAGTTTTCTCATTCGTCATGTGCTAG,1.26 z-score
TTAGATCTCAGACAGGATTAGTGCTAG,-0.14 z-score
TTAGAACTGAGACTGGATTCGTGCTAG,-0.197 z-score
GACGGTTTCGGTTTCGGAACGTGCTAG,11.8 z-score
TTAGGTATCGGGACGGGGTTAGTGCTA,0.728 z-score
CTTTCTTTGCTTCACCCTGGGTGCTAG,5.1 z-score
TTAGGACTGGGGACTGGGTTCGTGCTA,-1.19 z-score
TTAGATTCCAGTTTCTATTAGTGCTAG,4.01 z-score
GACGAACTGGGTTTTCGAGACGTGCTA,0.0947 z-score
TCAGAAATCACCCTTGGAACTGTGCTA,-0.0179 z-score
TTAGGTTTCCTCCTGCTTTAGTGCTAG,3.31 z-score
GACGGTCTCCGACTGCTGACGTGCTAG,0.712 z-score
TTAGATAACGGGACTGGATTAGTGCTA,-0.547 z-score
GACGGACTGGGTTTGGGGACGTGCTAG,-0.573 z-score
TTAGGTTTCGGTCTCGGTTAGTGCTAG,8.81 z-score
TTAGGTAGCGACTTTCGGTTAGTGCTA,1.29 z-score
TTAGAACTGGGGTTTCGACTAGTGCTA,-0.132 z-score
TCAAGTCTCTGTTCTTTACTGTGCTAG,1.04 z-score
TTAGATCTGGGGTATCGATTAGTGCTA,-0.343 z-score
TGAGGTCTCCTTTTCCTTTAGTGCTAG,4.91 z-score
TCATTTTTCTAATTTACACTGTGCTAG,2.2 z-score
TCACTTCCCCTCTCTTTCACTGTGCTA,2.62 z-score
GACGATATCAGACTGAAGACGTGCTAG,0.384 z-score
TTCCAATTCTCTTTTCACTTGTGCTAG,3.7 z-score
ACTAGTTTCTTTTCTTTTCTGTGCTAG,7.32 z-score

# Series 3
# Target: Fragile X messenger ribonucleoprotein 1, C-terminal low-complexity region (Fmr1, Mus musculus, UniProt P35922)
# Technique: RNA Bind-n-Seq
# Molecule type: RNA
# Medium: in vitro
# Concentration: 200 nM
# Notes: whole 134-nt RNA, ends assumed
# Together with: 150 mM KCl
# Baseline: input library
# Direction: higher = stronger binding
Sequence,log2 enrichment
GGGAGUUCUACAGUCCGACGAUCCCUGUGCUACACAUCGUAUGUACCGAAUCGGGGUUUGGGGAAAAAGGGGUUUUUUUGGGGAAAGUAUUAUGUUACGCCGUUCGGAUCUGCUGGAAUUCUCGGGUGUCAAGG,0.298
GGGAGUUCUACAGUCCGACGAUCCCUCAAGUCCUGUGCUACACAUCGUAUGUACCGAAUCGGGGCGGCGGGCGGGAAAGUAUUAUGUUACGCCGUUCGGAUCUGCACUUCCAGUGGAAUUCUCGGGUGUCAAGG,0.937
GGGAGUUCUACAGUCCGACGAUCGCAGGAAGUAAAAACAAAUGGAAAUGCUUCGGAUAGUGGCAGAAAUGGGGGUUGCUAAGGAAAGGGUGGGAUGGGAGUGGGUAAAGAGUUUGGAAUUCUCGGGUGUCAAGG,0.44
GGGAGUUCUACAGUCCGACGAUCCAACUUUAGAGGAGGAUCUGAUGGAUAUGGCAGUGGACGUGGAUUUGGGGAUGGCUAUAAUGGGUAUGGAGGAGGACCUGGAGGUGGCAAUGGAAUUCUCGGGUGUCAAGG,0.433
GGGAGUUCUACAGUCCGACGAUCAGUCCUGUGCUACACAUCGUAUGUACCGAAUCGGGUGGGAAAAAGGGAAAAAAAGGGAAAGUAUUAUGUUACGCCGUUCGGAUCUGCACUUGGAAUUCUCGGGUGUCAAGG,0.249
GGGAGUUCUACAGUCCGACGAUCUUGGACUUGGAGCAUCUGCUCAGUGAGUCUCCAGAAGGAAGUCCCUUCCGAGAUAUGGAUGAUGGAAGUGAUUCCCUUGGGGUGGGAUUGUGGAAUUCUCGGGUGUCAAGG,-1.92
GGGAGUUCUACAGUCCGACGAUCUGGGAGGUGGAUUUUGUUUAUUUUUUUAGCUCAUUUCCAGGGGUGGGACUUUUUUUUUAAUAUGUGUCAUGAAUAAAGUUGUUUUUGAAAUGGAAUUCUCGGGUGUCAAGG,0.326
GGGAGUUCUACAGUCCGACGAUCCCUGUGCUACACAUCGUAUGUACCGAAUCGGGGUUUUUUGGGUUUUUUGGGUUUUUUGGGAAAGUAUUAUGUUACGCCGUUCGGAUCUGCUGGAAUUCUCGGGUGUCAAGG,-0.148
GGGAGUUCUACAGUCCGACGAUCUGCGGGCGGCUGAGACGCCGCCUGCCUGGCACCUAGGAGCGCAGCGGAGCCCCGACACCGCCGCCGCCGCCAUGGAGUCCGAGACCGAACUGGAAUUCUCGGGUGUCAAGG,1
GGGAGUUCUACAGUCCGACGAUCCAAGUCCUGUGCUACACAUCGUAUGUACCGAAUCGGAAAAAAAGGAAAAAGGAGGAAAGUAUUAUGUUACGCCGUUCGGAUCUGCACUUCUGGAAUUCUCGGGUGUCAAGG,-0.664
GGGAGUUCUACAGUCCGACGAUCCCUCAAGUCCUGUGCUACACAUCGUAUGUACCGAAUCGGUGGUGGUUUUUGGAAAGUAUUAUGUUACGCCGUUCGGAUCUGCACUUCCAGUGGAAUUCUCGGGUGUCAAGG,0.0951
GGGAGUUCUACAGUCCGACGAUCCACAGACAACACGCACCCACACAGACACAGAGGGAAGCGGUUGGGAUGGGGACAGGGUGCACAGCAGGGCGGGGUAGGACCCCAGCCCCUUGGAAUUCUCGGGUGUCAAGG,1.45
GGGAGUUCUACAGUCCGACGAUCCCUCAAGUCCUGUGCUACACAUCGUAUGUACCGAAUCGGGCGGCGGGGCGGGGAAAGUAUUAUGUUACGCCGUUCGGAUCUGCACUUCCAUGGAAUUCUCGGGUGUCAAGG,1.11
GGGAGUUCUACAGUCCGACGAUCCUGUGCUACACAUCGUAUGUACCGAAUCGGGCCCCCCCGGGCCCCCCCGGGCCCCCCCGGGAAAGUAUUAUGUUACGCCGUUCGGAUCUGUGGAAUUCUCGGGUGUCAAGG,-1.14

# Series 4
# Target: Histone acetyltransferase KAT6A, both winged helices, GST fusion (KAT6A, Homo sapiens, UniProt Q92794, residues 1-181)
# Technique: protein binding microarray
# Molecule type: double-stranded DNA, one strand shown
# Medium: in vitro
# Concentration: not given
# Notes: 8-mer, flanks averaged, mean of 2 arrays, mostly near background
# Baseline: not given
# Direction: higher = stronger binding
# Target sequence (chain): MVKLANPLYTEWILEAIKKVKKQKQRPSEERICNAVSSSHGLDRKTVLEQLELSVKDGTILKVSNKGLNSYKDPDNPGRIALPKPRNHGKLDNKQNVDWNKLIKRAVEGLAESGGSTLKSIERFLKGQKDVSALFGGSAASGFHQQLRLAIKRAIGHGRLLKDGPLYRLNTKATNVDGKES
Sequence,E-score
CAGTCAAA,-0.0412
CGCACGTC,0.146
TACCTTGA,0.0264
GCCTGCGC,0.253
TGACAAAA,-0.133
GAACAATC,0.0595
ATTATTCC,0.00039
CTAGAATA,-0.0263
CATTTATA,-0.108
AAATCAAC,-0.138
GCATGGCC,-0.0414
AATGTGGC,-0.0301
ATTGTTAA,-0.133
CTACATGC,-0.00789
CCGGGACG,0.246
AAAAGCAA,-0.0177
CCCAAACG,-0.0581
ACACATCG,-0.132
ATATTCAT,-0.089
ACGTACGA,0.0193
CAACTTCC,-0.0884
CATACATA,0.0132
CCGGATGA,-0.0801
GTCACTCA,-0.169
ACAGAGAA,-0.129

# Some of these lines once more (series 2):
Sequence,fitted relative affinity
TTAGGTATCGGGACGGGGTTAGTGCTA,0.728 z-score
TTAGGTTTCGGTCTCGGTTAGTGCTAG,8.81 z-score
TTAGGTTTCCTCCTGCTTTAGTGCTAG,3.31 z-score
TGAGGTCTCCTTTTCCTTTAGTGCTAG,4.91 z-score
GACGGTCTCCGACTGCTGACGTGCTAG,0.712 z-score
TTCCAATTCTCTTTTCACTTGTGCTAG,3.7 z-score
GACGGACTGGGTTTGGGGACGTGCTAG,-0.573 z-score
TTAGATTCCAGTTTCTATTAGTGCTAG,4.01 z-score
TTAGATCTCAGACAGGATTAGTGCTAG,-0.14 z-score
TTAGAACTGGGGTTTCGACTAGTGCTA,-0.132 z-score
TTAGGACTGGGGACTGGGTTCGTGCTA,-1.19 z-score
TTAGAACTGAGACTGGATTCGTGCTAG,-0.197 z-score
TTAGGTAGCGACTTTCGGTTAGTGCTA,1.29 z-score
